Results of several laboratories.
Lines come from different studies, so protocols differ.
PDE10A: cAMP and cAMP-inhibited cGMP 3',5'-cyclic phosphodiesterase 10A (PDE10A, Homo sapiens, UniProt Q9Y233)
Sequence of UniProt Q9Y233 (whole entry, looked up): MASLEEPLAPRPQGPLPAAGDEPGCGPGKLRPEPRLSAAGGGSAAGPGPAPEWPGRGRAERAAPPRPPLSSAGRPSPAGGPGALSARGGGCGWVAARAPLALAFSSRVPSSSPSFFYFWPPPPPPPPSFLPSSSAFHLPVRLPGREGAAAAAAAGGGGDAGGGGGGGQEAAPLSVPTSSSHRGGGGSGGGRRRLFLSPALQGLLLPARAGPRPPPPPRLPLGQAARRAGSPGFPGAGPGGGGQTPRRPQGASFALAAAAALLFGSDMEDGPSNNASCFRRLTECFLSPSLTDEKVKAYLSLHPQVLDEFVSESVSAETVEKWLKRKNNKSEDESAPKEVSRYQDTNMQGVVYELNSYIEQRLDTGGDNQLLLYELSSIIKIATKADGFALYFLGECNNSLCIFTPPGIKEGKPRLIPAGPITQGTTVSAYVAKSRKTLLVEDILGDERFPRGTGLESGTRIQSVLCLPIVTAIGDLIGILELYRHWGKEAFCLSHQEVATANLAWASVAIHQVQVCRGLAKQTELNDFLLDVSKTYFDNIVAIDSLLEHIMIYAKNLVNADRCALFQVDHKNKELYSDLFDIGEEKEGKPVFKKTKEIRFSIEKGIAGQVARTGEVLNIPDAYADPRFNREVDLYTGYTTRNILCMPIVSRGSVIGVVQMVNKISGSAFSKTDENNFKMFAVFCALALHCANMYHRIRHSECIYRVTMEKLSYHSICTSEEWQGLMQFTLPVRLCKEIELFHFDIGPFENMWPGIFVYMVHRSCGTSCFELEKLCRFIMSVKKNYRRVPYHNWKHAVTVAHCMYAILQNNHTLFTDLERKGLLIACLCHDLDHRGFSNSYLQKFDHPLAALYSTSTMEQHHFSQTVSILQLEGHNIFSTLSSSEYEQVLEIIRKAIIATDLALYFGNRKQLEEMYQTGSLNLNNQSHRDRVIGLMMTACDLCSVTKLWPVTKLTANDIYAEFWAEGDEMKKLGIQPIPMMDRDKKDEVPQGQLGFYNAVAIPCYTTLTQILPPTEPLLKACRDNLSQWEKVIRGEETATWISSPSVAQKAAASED
PTGS2: Prostaglandin G/H synthase 2 (PTGS2, Homo sapiens, UniProt P35354)
Sequence of UniProt P35354 (whole entry, looked up): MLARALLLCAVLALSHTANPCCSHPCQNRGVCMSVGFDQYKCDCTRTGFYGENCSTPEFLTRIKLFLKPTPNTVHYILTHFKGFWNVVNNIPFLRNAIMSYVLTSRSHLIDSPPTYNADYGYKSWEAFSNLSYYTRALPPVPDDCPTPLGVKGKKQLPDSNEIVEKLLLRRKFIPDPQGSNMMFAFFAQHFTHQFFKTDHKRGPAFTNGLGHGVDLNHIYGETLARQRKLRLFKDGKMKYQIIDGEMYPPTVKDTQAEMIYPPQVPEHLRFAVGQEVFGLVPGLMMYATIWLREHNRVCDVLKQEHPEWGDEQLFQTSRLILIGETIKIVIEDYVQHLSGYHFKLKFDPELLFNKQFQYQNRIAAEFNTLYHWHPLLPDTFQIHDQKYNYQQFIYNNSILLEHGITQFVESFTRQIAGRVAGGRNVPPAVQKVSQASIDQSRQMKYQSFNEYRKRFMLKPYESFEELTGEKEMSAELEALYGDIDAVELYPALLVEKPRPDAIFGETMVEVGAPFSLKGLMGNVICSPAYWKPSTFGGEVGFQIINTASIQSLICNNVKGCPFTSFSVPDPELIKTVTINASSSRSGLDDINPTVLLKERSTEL
SIRT6: NAD-dependent protein deacylase sirtuin-6 (SIRT6, Homo sapiens, UniProt Q8N6T7)
Sequence of UniProt Q8N6T7 (whole entry, looked up): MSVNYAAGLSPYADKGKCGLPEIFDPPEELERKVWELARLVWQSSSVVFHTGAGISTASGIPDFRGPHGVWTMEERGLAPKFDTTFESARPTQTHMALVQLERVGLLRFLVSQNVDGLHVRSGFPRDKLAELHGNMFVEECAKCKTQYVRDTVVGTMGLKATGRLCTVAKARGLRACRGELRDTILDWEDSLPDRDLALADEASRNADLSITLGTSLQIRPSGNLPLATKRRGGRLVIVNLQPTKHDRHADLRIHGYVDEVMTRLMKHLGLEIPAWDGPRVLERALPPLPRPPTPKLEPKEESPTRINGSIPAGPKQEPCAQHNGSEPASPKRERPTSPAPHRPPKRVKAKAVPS
KCNA1: Potassium voltage-gated channel subfamily A member 1 (KCNA1, Homo sapiens, UniProt Q09470)
Sequence of UniProt Q09470 (whole entry, looked up): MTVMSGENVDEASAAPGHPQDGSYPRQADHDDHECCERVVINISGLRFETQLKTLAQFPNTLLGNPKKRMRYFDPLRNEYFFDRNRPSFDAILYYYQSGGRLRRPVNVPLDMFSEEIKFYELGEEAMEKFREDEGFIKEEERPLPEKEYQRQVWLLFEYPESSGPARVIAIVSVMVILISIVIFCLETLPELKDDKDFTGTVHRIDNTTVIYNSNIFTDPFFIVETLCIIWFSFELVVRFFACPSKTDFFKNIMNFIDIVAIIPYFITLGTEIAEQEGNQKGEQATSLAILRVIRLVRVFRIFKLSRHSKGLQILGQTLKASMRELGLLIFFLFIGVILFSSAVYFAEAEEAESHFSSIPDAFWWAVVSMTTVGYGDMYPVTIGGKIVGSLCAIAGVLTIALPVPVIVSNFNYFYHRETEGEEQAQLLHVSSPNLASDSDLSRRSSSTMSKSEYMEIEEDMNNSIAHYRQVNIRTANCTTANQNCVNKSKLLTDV
USP51: Ubiquitin carboxyl-terminal hydrolase 51 (USP51, Homo sapiens, UniProt Q70EK9)
Sequence of UniProt Q70EK9 (whole entry, looked up): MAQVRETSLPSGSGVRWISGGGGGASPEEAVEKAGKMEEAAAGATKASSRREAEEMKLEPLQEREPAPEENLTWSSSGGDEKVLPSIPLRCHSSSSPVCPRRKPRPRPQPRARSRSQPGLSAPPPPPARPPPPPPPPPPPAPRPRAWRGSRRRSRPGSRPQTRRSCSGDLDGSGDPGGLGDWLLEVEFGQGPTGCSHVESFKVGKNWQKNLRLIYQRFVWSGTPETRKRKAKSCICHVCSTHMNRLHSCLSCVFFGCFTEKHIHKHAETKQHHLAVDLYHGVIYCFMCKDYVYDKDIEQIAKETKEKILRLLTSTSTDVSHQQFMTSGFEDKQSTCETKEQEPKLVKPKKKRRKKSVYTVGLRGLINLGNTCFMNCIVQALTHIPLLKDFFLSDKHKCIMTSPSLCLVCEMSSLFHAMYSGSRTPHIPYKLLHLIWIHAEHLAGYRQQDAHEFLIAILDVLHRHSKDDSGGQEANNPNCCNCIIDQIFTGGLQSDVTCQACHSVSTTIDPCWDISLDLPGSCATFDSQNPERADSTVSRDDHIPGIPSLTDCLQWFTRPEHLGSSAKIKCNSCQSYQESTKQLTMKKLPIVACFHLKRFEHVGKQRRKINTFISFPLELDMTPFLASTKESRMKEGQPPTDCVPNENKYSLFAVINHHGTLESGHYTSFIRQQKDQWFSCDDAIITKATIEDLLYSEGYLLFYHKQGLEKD
HDAC1: Histone deacetylase 1 (HDAC1, Homo sapiens, UniProt Q13547)
Sequence of UniProt Q13547 (whole entry, looked up): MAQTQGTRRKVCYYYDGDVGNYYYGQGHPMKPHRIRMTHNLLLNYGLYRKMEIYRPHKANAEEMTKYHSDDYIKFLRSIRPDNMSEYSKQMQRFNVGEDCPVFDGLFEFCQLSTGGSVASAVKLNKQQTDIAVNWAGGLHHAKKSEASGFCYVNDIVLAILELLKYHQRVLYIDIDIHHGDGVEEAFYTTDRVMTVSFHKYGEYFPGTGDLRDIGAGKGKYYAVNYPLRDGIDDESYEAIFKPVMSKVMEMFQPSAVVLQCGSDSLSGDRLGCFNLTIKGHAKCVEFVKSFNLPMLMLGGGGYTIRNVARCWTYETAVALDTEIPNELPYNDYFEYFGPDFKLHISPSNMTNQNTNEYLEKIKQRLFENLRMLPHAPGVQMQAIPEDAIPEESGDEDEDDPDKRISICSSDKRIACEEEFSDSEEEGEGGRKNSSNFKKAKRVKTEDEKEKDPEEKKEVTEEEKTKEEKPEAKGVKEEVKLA
Sequence of UniProt Q9UBN7 (whole entry, looked up): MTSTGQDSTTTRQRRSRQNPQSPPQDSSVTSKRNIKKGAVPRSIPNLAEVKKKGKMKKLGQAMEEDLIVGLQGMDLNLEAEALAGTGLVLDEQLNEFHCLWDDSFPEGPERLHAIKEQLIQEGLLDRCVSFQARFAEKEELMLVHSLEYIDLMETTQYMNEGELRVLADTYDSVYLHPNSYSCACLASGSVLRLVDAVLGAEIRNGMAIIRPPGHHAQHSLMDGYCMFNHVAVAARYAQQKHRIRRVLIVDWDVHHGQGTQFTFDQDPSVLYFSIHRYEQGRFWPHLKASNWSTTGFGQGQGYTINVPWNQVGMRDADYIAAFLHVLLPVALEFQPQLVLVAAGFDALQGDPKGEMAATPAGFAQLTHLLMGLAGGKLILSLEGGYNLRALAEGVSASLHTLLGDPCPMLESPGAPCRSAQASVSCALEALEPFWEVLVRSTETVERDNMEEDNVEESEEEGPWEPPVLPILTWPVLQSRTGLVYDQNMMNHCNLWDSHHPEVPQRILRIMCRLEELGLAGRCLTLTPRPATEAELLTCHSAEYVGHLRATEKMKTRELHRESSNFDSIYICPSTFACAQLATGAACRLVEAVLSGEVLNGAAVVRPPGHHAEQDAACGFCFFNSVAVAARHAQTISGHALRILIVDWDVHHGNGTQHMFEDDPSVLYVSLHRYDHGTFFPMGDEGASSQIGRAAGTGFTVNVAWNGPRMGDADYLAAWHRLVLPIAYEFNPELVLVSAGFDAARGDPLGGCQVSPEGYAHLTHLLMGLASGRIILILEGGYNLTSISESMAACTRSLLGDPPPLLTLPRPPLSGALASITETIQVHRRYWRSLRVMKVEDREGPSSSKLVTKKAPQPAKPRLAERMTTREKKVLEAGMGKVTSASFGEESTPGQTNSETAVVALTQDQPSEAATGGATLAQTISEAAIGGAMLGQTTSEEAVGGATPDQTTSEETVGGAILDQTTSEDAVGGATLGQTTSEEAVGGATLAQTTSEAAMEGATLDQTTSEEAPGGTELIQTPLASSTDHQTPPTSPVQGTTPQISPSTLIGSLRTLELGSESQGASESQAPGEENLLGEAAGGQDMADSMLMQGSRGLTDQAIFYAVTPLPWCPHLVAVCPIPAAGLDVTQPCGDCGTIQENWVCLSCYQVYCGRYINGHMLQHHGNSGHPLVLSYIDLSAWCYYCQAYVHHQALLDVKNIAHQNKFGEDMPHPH

With COc1cc2ncnc(Cc3cccc(-c4ccccc4CO)c3)c2cc1OC the inhibition was 44% (PDE10A; enzyme activity, inhibitor, FP; 0.1 µM).
O=c1cc(-c2ccc(O)c(O)c2)oc2cc(O)cc(O)c12 gave an inhibition of 78.8% (PTGS2; enzyme activity, inhibitor; 1.95 µg/mL).
CNc1ncc2c(/C=C/C(=O)N3CCC(OC)CC3)nn(Cc3cccc(C(F)(F)F)c3)c2n1 gave a remaining activity of 94% (Insulin-like growth factor 1 receptor (IGF1R, Homo sapiens, UniProt P08069); enzyme activity, inhibitor, radiometric; 1 µM).
For Cc1cc(OS(=O)(=O)Oc2ccc(C(C)C)cc2)cc(C(=O)NO)c1, the inhibition was 46% (Histone deacetylase 8 (HDAC8, Homo sapiens, UniProt Q9BY41); enzyme activity, inhibitor, fluorescence; 10 µM).
The inhibition of NC(=O)c1ccc(C(=O)NOCc2ccc(Sc3ccccc3)cc2)cc1 is reported as 93.6% (SIRT6; enzyme activity, inhibitor, fluorescence; 100 µM).
CCCN1C[C@H](CSC)C[C@@H]2c3cccc4[nH]cc(c34)C[C@H]21 gave an inhibition of 12% (KCNA1; ion current, inhibitor, patch clamp; 3 µM).
With CC[C@H](C)[C@H](NC(=O)[C@H](CCC(N)=O)NC(=O)[C@@H](NC(=O)[C@H](CCSC)NC(=O)[C@H](CCCCN)NC(=O)[C@H](CO)NC(=O)[C@@H](NC(=O)[C@H](CCSC)NC(=O)[C@H](CC(C)C)NC(=O)[C@H](CC(N)=O)NC(=O)[C@@H](NC(=O)[C@@H](NC(=O)[C@H](CO)NC(=O)[C@H](CC(C)C)NC(=O)[C@H](C)NC(=O)[C@H](CCCNC(=N)N)NC(=O)[C@H](CCC(=O)O)NC(=O)[C@H](Cc1ccc(O)cc1)NC(=O)[C@H](Cc1ccccc1)NC(=O)[C@H](C)NC(=O)[C@H](CC(N)=O)NC(=O)[C@@H](N)CCCCN)[C@@H](C)CC)[C@@H](C)CC)[C@@H](C)O)C(C)C)C(=O)N[C@@H](CC(N)=O)C(=O)N[C@H](C(=O)O)C(C)C the inhibition was -27% (Glycogen synthase kinase-3 beta (GSK3B, Homo sapiens, UniProt P49841); enzyme activity, inhibitor, radiometric; 250 µM).
With C[C@H]1[C@H](C)CC[C@]2(C(=O)O)CC[C@]3(C)C(=CC[C@@H]4[C@@]5(C)CC[C@H](O)C(C)(C)[C@@H]5CC[C@]43C)[C@H]12 the inhibition was 19% (USP51; enzyme activity, inhibitor; 5 µM).
CC(C)c1[nH]c2nc(N)nn2c(=O)c1Cc1ccc(Cl)c(Cl)c1 has an inhibition of 80% (C-C chemokine receptor type 5 (CCR5, Homo sapiens, UniProt P51681); β-arrestin recruitment, antagonist; 1 µM).
CN1CC(Oc2cnc(C#N)cc2-c2ccn3nc(NC(=O)C4CC4)cc3c2)C1 gave an inhibition of 7.5% (Inhibitor of nuclear factor kappa-B kinase subunit epsilon (IKBKE, Homo sapiens, UniProt Q14164); enzyme activity, inhibitor; 1 µM).
With Nc1c(Br)cc(Br)cc1CN[C@H]1CC[C@H](O)CC1 the inhibition was -8.92% (KCNA1; ion current, inhibitor, patch clamp; 3 µM).
With CC(C)OCCn1c(=S)[nH]c(=O)c2[nH]ccc21 the inhibition was 93.9% (Myeloperoxidase (MPO, Homo sapiens, UniProt P05164); enzyme activity, inhibitor, fluorescence; 0.5556 µM).
For Cc1c(OS(=O)(=O)Oc2ccc(C(F)(F)F)cc2)cccc1C(=O)NO, the inhibition was 7% (HDAC1; enzyme activity, inhibitor, fluorescence; 5 µM).
C#CC1(O)CC[C@H]2[C@@H]3CCC4=CC(=O)CC[C@@H]4[C@H]3CC[C@@]21CC (mixture of isomers) gave an inhibition of 36% (USP51; enzyme activity, inhibitor; 5 µM).
Cc1cc(O)c(-c2ccc([C@@H](C)CN(C)C)cc2)c2c1[nH]c(=O)c1sccc12 has an inhibition of 11% (Cyclin-dependent kinase 10 (CDK10, Homo sapiens, UniProt Q15131); enzyme activity, inhibitor; 0.1 µM).
COc1cc(-c2cc(=O)c3c(O)cc(O)cc3o2)ccc1O gave an inhibition of 0% (PTGS2; enzyme activity, inhibitor; 0.24 µg/mL).
O=C(NO)c1cc(F)cc(OS(=O)(=O)Oc2ccc(C(F)(F)F)cc2)c1 gave an inhibition of 12% (HDAC1; enzyme activity, inhibitor, fluorescence; 5 µM).
For COc1c2ccoc2cc2oc(=O)ccc12, the inhibition was 4% (USP51; enzyme activity, inhibitor; 5 µM).
COc1ccc(Cc2ncnc3cc(OC)c(OC)cc23)cc1OC gave an inhibition of 48% (PDE10A; enzyme activity, inhibitor, FP; 0.1 µM).
The inhibition of CCc1nn(C)c2nc(-c3ccc(C(=O)O)cc3)nc(NCc3ccc(F)cc3)c12 is reported as 30% (High affinity cAMP-specific and IBMX-insensitive 3',5'-cyclic phosphodiesterase 8A (PDE8A, Homo sapiens, UniProt O60658); enzyme activity, inhibitor, radiometric; 10 µM).
O=c1cc(-c2ccc(O)cc2)oc2cc(O)cc(O)c12 has an inhibition of 6.24% (PTGS2; enzyme activity, inhibitor; 0.24 µg/mL).
The inhibition of CC[C@H](C)[C@H](NC(=O)[C@H](CCC(N)=O)NC(=O)[C@H](CC(C)C)NC(=O)[C@H](CCSC)NC(=O)[C@H](CCCCN)NC(=O)[C@H](CO)NC(=O)[C@H](CO)NC(=O)[C@H](CCSC)NC(=O)[C@H](CC(C)C)NC(=O)[C@H](CC(N)=O)NC(=O)[C@@H](NC(=O)[C@@H](NC(=O)[C@H](CO)NC(=O)[C@H](CC(C)C)NC(=O)[C@H](CS)NC(=O)[C@H](CCCNC(=N)N)NC(=O)[C@H](CC(=O)O)NC(=O)[C@H](Cc1c[nH]c2ccccc12)NC(=O)[C@H](Cc1ccccc1)NC(=O)[C@H](C)NC(=O)[C@H](CCC(=O)O)NC(=O)[C@@H](N)CCCCN)C(C)C)[C@@H](C)CC)C(=O)N[C@@H](CC(N)=O)C(=O)N[C@@H](C)C(=O)O is reported as 76% (Cyclin-dependent kinase 5, with p35 (CDK5, Homo sapiens, UniProt Q00535); enzyme activity, inhibitor, radiometric; 500 µM).
For Cc1cc(OS(=O)(=O)Oc2ccc(Oc3ccccc3)cc2)cc(C(=O)NO)c1, the inhibition was 54% (Protein deacetylase HDAC6 (HDAC6, Homo sapiens, UniProt Q9UBN7); enzyme activity, inhibitor, fluorescence; 10 µM).
For NCCS(=O)(=O)O, the inhibition was 15% (USP51; enzyme activity, inhibitor; 5 µM).
The inhibition of N#CC[C@@]12C[C@@H]1[C@@H](n1cnc3c(NCCCCCc4ccccc4)nc(C#Cc4ccc(Cl)s4)nc31)[C@H](O)[C@@H]2O is reported as 0% (Sodium-dependent serotonin transporter (SLC6A4, Homo sapiens, UniProt P31645); ligand displacement, radioligand; 10 µM).
The inhibition of O=C(O)c1ccc(O)cc1 is reported as 82.1% (PTGS2; enzyme activity, inhibitor; 7.81 µg/mL).
For CC12CC3CC(C)(C1)CC(N)(C3)C2, the inhibition was 7.26% (KCNA1; ion current, inhibitor, patch clamp; 3 µM).
C#Cc1cc(-c2cc(Nc3nc(N[C@@H](C)c4ccc(F)cn4)ncc3Cl)n[nH]2)ccc1C=O has an inhibition of 2.35% (Calcium/calmodulin-dependent protein kinase type 1D (CAMK1D, Homo sapiens, UniProt Q8IU85); enzyme activity, inhibitor; 0.2 µM).
COc1cc([C@@H]2c3cc4c(cc3[C@@H](O[C@@H]3O[C@@H]5CO[C@@H](C)O[C@H]5[C@H](O)[C@H]3O)[C@H]3COC(=O)[C@H]23)OCO4)cc(OC)c1O has an inhibition of 0% (USP51; enzyme activity, inhibitor; 5 µM).
The inhibition of COc1ccc(-c2cccc(Cc3ncnc4cc(OC)c(OC)cc34)c2)cc1 is reported as 79% (PDE10A; enzyme activity, inhibitor, FP; 0.1 µM).
The inhibition of Oc1ccc(/C=C/c2cc(O)cc(O)c2)cc1 is reported as 0% (USP51; enzyme activity, inhibitor; 5 µM).
With Cc1cc(OS(=O)(=O)Oc2ccccc2)cc(C(=O)NO)c1 the inhibition was 10% (HDAC1; enzyme activity, inhibitor, fluorescence; 5 µM).
With OCCc1ccc(O)c(O)c1 the inhibition was 21% (USP51; enzyme activity, inhibitor; 5 µM).
O=C(NOCc1ccc(C(F)(F)F)cc1)c1ccc(-c2ncc[nH]2)cc1 has an inhibition of 14.6% (SIRT6; enzyme activity, inhibitor, fluorescence; 100 µM).

Repeated from above:
The inhibition of O=C(O)c1ccc(O)cc1 is reported as 82.1% (PTGS2; enzyme activity, inhibitor; 7.81 µg/mL).
For CC12CC3CC(C)(C1)CC(N)(C3)C2, the inhibition was 7.26% (KCNA1; ion current, inhibitor, patch clamp; 3 µM).
